# Published values of several laboratories.
# Lines come from different studies, so protocols differ. ± marks the error that the study gave.
SMILES,test,test system,setting,how to read,endpoint,value
Cc1cc(Nc2nc(C[C@@]3(C(=O)O)CCN(Cc4cccc(Cl)c4F)[C@H](C)C3)cc(C)c2F)n[nH]1,,"Sprague-Dawley rat, plasma","oral, 0.5 mg/kg, single dose",,bioavailability,81.1%
COc1ccc(C)cc1NC(=O)OC1CC2CCCC(C1)N2Cc1ccc(CC[18F])cc1 (centres unmarked),,"mouse, bone","2 h, tumour-bearing",,tracer uptake,5.68 %ID/g
O=C([O-])C[N+]12CC(=O)[O][Re-2]1[O]P(=O)([O-])C2.[C-]#[O+].[C-]#[O+].[C-]#[O+] (centres unmarked),HPLC,aqueous solution,"1 d, pH 9, room temperature",,isomer fraction at equilibrium,61%
CC[C@H](C)[C@H](NC(=O)[C@H](CCC(=O)O)NC(=O)[C@H](CCC(=O)O)NC(=O)[C@H](Cc1ccccc1)NC(=O)[C@H](CC(=O)O)NC(=O)CNC(=O)[C@H](CC(N)=O)NC(=O)CNC(=O)CNC(=O)CNC(=O)CNC(=O)[C@@H]1CCCN1C(=O)[C@H](CCCNC(=N)N)NC(=O)[C@@H]1CCCN1C(=O)[C@H](N)Cc1ccccc1)C(=O)N1CCC[C@H]1C(=O)N[C@@H](CCC(=O)O)C(=O)N[C@@H](CCC(=O)O)C(=O)N[C@@H](Cc1ccc(O)cc1)C(=O)N[C@@H](CC(C)C)C(=O)O,LC-MS/MS,human plasma,"4 h, 25 °C, stability, nominal 3.0 ng/mL",,concentration,3.04 ± 0.1 ng/mL
COc1cc(C(=O)NCCOCCOCCOCCNC(=O)c2ccc([18F])nc2)ccc1NC(=O)C1NC(CC(C)(C)C)C(C#N)(c2ccc(Cl)cc2F)C1c1cccc(Cl)c1F (centres unmarked),,"athymic male mice, HepG2 xenograft",2 h,baseline: tumour over blood,tumour-to-tissue ratio,2.66 ± 1
CSCC[C@H](NC(=O)CNC(=O)[C@H](CC(=O)O)NC(=O)[C@@H](NC(=O)[C@@H](NC(=O)[C@@H](NC(=O)CNC(=O)[C@H](CCC(N)=O)NC(=O)[C@H](CCSC)NC(=O)[C@H](CC(=O)O)NC(=O)[C@H](C)NC(=O)[C@H](C)NC(=O)[C@@H](NC(=O)[C@H](CO)NC(=O)[C@@H](N)CC(C)C)[C@@H](C)O)C(C)C)C(C)C)[C@@H](C)O)C(=O)N[C@@H](C)C(=O)N[C@@H](CO)C(=O)NCC(=O)N[C@@H](CC(C)C)C(=O)N[C@@H](CC(=O)O)C(=O)N[C@@H](CCCCN)C(=O)N[C@@H](CC(=O)O)C(=O)N[C@@H](Cc1ccc(O)cc1)C(=O)N[C@@H](CC(C)C)C(=O)N[C@@H](CCCCN)C(=O)N1CCC[C@H]1C(=O)N[C@@H](CC(=O)O)C(=O)N[C@@H](CC(=O)O)C(=O)O,,"human patients, serum","intravenous infusion, 3 mg/kg",,distribution half-life,1.14 min
CN[C@](C)(C[18F])C(=O)O,,"SCID mouse SK-OV-3 xenograft, lung",30 min post injection,,tissue uptake,2.9 ± 0.6 %ID/g
CC[C@H](C)C(=O)N1CCC(NC(=O)Nc2ccc(OC(F)(F)F)c(F)c2)CC1,,human,"oral, 8 mg, fed, mean",,half-life,59.5 h
CSCC[C@@H]1NC(=O)[C@@H]2CSSC[C@H](NC(=O)[C@H](CO)NC(=O)[C@H](C)N)C(=O)N[C@@H](CCCNC(=N)N)C(=O)N[C@@H]([C@@H](C)O)C(=O)N3CCC[C@H]3C(=O)N[C@@H](CCCCN)C(=O)N[C@@H](CC(=O)O)C(=O)N[C@H]3CSSC[C@H](NC(=O)[C@H](CCCCN)NC(=O)[C@H](CCCNC(=N)N)NC(=O)[C@H](CC(N)=O)NC1=O)C(=O)N[C@@H](CCCCN)C(=O)N[C@H]1CSSC[C@H](NC(=O)[C@@H]4CCCN4C(=O)[C@H](CC(=O)O)NC(=O)[C@H](C)NC3=O)C(=O)N[C@@H](C)C(=O)N[C@@H](CCCCN)C(=O)N[C@@H](CCC(=O)O)C(=O)N[C@@H]([C@@H](C)O)C(=O)NCC(=O)N[C@@H](CSSC[C@@H](C(N)=O)NC(=O)[C@H](CCCNC(=N)N)NC(=O)[C@H](CC(N)=O)NC1=O)C(=O)N1CCC[C@H]1C(=O)N[C@@H](Cc1ccc(O)cc1)C(=O)NCC(=O)N[C@@H](CCCCN)C(=O)N2,,"DA rat pristane-induced arthritis, serum","subcutaneous, 0.1 mg/kg once weekly, 21 days",,Glucose,121 mg/dL
[18F]c1ccc2cc(-c3cnc(N4CCOCC4)nc3)[nH]c2c1,dynamic PET,"Sprague-Dawley rats, both sexes, whole brain","intravenous, dose not given, 120 min",,brain radioactivity,0.5 SUV
NC(=O)[C@H](Cc1ccccc1)N[11C](=O)OCc1ccccc1,dynamic PET,"Wistar rat, male, spinal cord","intravenous, 13.1 MBq",,time to maximum uptake,10 min
CC(C)C[C@H](NC(=O)[C@H](CCCCN)NC(=O)[C@H](CCC(=O)O)NC(=O)[C@H](C)NC(=O)[C@@H](NC(=O)[C@H](CCCCN)NC(=O)[C@H](CC(=O)O)NC(=O)[C@H](Cc1ccc(O)cc1)NC(=O)[C@H](Cc1ccccc1)NC(=O)[C@H](C)NC(=O)[C@H](CCCCN)NC(=O)[C@H](CC(C)C)NC(=O)[C@H](Cc1c[nH]c2ccccc12)NC(=O)[C@@H](N)CC(=O)O)C(C)C)C(=O)N[C@@H](CCCCN)C(=O)N[C@@H](CCC(=O)O)C(=O)N[C@@H](C)C(=O)N[C@@H](Cc1ccccc1)C(=O)N1CCC[C@H]1C(=O)N[C@@H](CC(=O)O)C(=O)N[C@@H](Cc1c[nH]c2ccccc12)C(=O)N[C@@H](C)C(=O)N[C@@H](CCCCN)C(=O)N[C@@H](C)C(=O)N[C@@H](C)C(=O)N[C@@H](Cc1ccc(O)cc1)C(=O)N[C@@H](CC(=O)O)C(=O)N[C@@H](CCCCN)C(=O)N[C@@H](C)C(=O)N[C@@H](C)C(=O)N[C@@H](CCC(=O)O)C(=O)N[C@@H](CCCCN)C(=O)N[C@@H](C)C(=O)N[C@@H](CCCCN)C(=O)N[C@@H](CCC(=O)O)C(=O)N[C@@H](C)C(=O)N[C@@H](C)C(=O)O,,"cynomolgus monkey female, plasma","intravenous infusion, 75 mg/kg, day 1, 30 min infusion",,AUC(0-last),8480 µg·h/mL
CC[C@H](C)[C@H](N)C(=O)N[C@@H](CO)C(=O)N[C@@H](Cc1ccc(O)cc1)C(=O)NCC(=O)NCC(=O)N[C@@H](C)C(=O)N[C@@H](CC(=O)O)C(=O)N[C@@H](Cc1ccc(O)cc1)C(=O)N[C@@H](CCCCN)C(=O)O,forced swim test,ICR mice,"intrathecal, 30 nmol, 30 min before test, minutes 2 to 6",,immobility time,140 ± 6.5 s
CSCC[C@H](NC(=O)[C@H](CC(N)=O)NC(=O)[C@@H](N)Cc1ccccc1)C(=O)N[C@@H](CCC(N)=O)C(=O)N[C@@H](C)C(=O)N[C@@H](CCC(N)=O)C(=O)N[C@@H](CCCNC(=N)N)C(=O)N[C@@H](CCCNC(=N)N)C(=O)N[C@@H](Cc1ccccc1)C(=O)N[C@@H](Cc1ccc(O)cc1)C(=O)N[C@@H](CCC(=O)O)C(=O)N[C@@H](C)C(=O)N[C@@H](CC(C)C)C(=O)N[C@@H](Cc1c[nH]cn1)C(=O)N[C@@H](CC(=O)O)C(=O)NCC(=O)NCC(=O)NCC(=O)NCC(=O)N[C@@H](CO)C(=O)N[C@@H](C)C(=O)N[C@@H](CCC(=O)O)C(=O)N[C@@H](C)C(=O)N[C@@H](CCC(=O)O)C(=O)N[C@@H](C)C(=O)N[C@@H](CCCCN)C(=O)N[C@@H](C)C(=O)N[C@@H](CCCCN)C(=O)N[C@@H](C)C(=O)N[C@@H](CCC(=O)O)C(=O)N[C@@H](C)C(=O)N[C@@H](CCC(=O)O)C(=O)N[C@@H](C)C(=O)N[C@@H](CCCCN)C(=O)N[C@@H](C)C(=O)N[C@@H](CCCCN)C(=O)O,,EAK peptide fibrils,"overnight, 37 °C, PBS, with: EAK to compound ratio 1:1",,incorporation into fibrils,12%
[2H]C([2H])([2H])C([2H])([2H])C([2H])([2H])OC(C(=O)OC1CCNCC1)(c1ccccc1)c1ccccc1,refers to: tonsillitis,healthy Japanese male,"oral, 18 mg, 16 days, multiple ascending dose",,adverse drug reactions,0%
CC(C)[C@H](NC(=O)[C@@H](NC(=O)[C@H](CCCNC(=N)N)NC(=O)[C@H](CCCNC(=N)N)NC(=O)[C@H](CCCNC(=N)N)NC(=O)[C@H](CCC(N)=O)NC(=O)[C@H](CCCNC(=N)N)NC(=O)[C@H](CCCNC(=N)N)NC(=O)[C@H](CCCCN)NC(=O)[C@H](CCCCN)NC(=O)[C@H](CCCNC(=N)N)NC(=O)CN)[C@@H](C)O)C(=O)N[C@H](C(=O)N[C@@H](CO)C(=O)N1CCC[C@H]1C(=O)O)[C@@H](C)O,,"mouse ICR, male","intranasal, 500 mg/kg single",,day of death,13 days
COC(=O)C[C@](O)(CCCC(C)(C)OC(C)=O)C(=O)O[C@@H]1C(OC)=C[C@]23CCCN2CCc2cc4c(cc2[C@H]13)OCO4,,"CD1 mouse, heart","oral, 1 mg/kg, 8 h, below quantification limit 1.00 ng/mL",,tissue concentration,not detected
CN(C)c1ccc(C(=O)NCCCCN2CCN(c3ccccc3O[11CH3])CC2)cc1,,"male Sprague Dawley rat, fat","iv, dose not given, with: cyclosporin A pretreatment",baseline: cyclosporin A over untreated,uptake ratio,0.58
COC(=O)C[C@H](NC(=O)[C@H](C)NC(=O)[C@@H](NC(=O)[C@H](CC(=O)OC)NC(=O)[C@@H](NC(=O)c1ccc2ccccc2n1)C(C)C)C(C)C)C(=O)COc1c(F)cccc1F,,"adult rat, brain","intraperitoneal, dose not given",,detection time,0.25 h
CC(C)[C@H](NC(=O)CNC(=O)[C@H](CCC(N)=O)NC(=O)[C@H](C)N)C(=O)O,,human,1 mg/kg single dose,,subjects given concomitant medication,0%
CN1CCN(c2ncc(-c3ccc4c(Nc5ccc(OCc6cccc(F)c6)c(Cl)c5)ccnc4c3)cn2)CC1,,mice,"oral, 50 mg/kg twice daily",,tolerability,not toxic
CN(C)C(CNC(=O)Nc1cc(C(F)(F)F)ccc1N1CCOCC1)c1ccncc1 (centres unmarked),,"mouse, serum","intraperitoneal, 180 mg/kg single dose",,serum calcium,8.6 mg/dL
COCCOCCOCCOc1ccc(/C=C/C2=[N+]3C(=C(c4cc(OC)cc(OC)c4)c4c(C)c(I)c(/C=C/c5ccc(OCCOCCOCCOC)cc5)n4[B-]3(F)F)C(C)=C2I)cc1,DPBF absorbance decrease,DMSO,,baseline: methylene blue,singlet oxygen quantum yield,0.65
CC[C@@H](C)[C@H](NC(=O)[C@H](C)NC(=O)[C@H](CCCCN)NC(=O)[C@H](CC(C)C)NC(=O)[C@H](C)NC(=O)[C@@H](NC(=O)[C@H](Cc1c[nH]cn1)NC(=O)[C@H](CC(C)C)NC(=O)[C@@H](NC(=O)[C@@H](NC(=O)[C@H](CCCCN)NC(=O)[C@H](CCCCN)NC(=O)[C@H](C)NC(=O)[C@H](CO)NC(=O)[C@H](CCCCN)NC(=O)[C@H](Cc1ccccc1)NC(=O)[C@@H](NC(=O)[C@H](CCCCN)NC(=O)[C@H](CC(C)C)NC(=O)[C@H](Cc1ccccc1)NC(=O)[C@H](CO)NC(=O)[C@H](CCCCN)NC(=O)[C@H](Cc1c[nH]c2ccccc12)NC(=O)[C@H](CCCCN)NC(C)=O)[C@@H](C)O)[C@@H](C)O)C(C)C)[C@@H](C)O)C(=O)N[C@@H](CO)C(=O)N[C@@H](CO)C(N)=O,RP-HPLC,Zorbax 300 SB-C8 column,30 °C,,retention time,28 min
CC(C)[C@H](NC(=O)CNC(=O)[C@H](CCC(N)=O)NC(=O)[C@H](C)N)C(=O)O,,healthy male volunteers,"intravenous, 15 mg/kg/h, 2 h, with: LPS 2 ng/kg",,subjects with Probably related AE,0%
CC(C)C[C@@H](NC(=O)[C@@H](C)NC(=O)[C@@H](CC(C)C)NC(=O)[C@@H](CCCCN)NC(=O)[C@H](N)CCCCN)C(=O)N[C@H](C)C(=O)N[C@H](CC(C)C)C(=O)N[C@H](C)C(=O)N[C@H](CCCCN)C(=O)N[C@H](CCCCN)C(=O)N[C@H](Cc1c[nH]c2ccccc12)C(=O)N[C@H](CC(C)C)C(=O)N[C@H](C)C(=O)N[C@H](CC(C)C)C(=O)N[C@H](C)C(=O)N[C@H](CCCCN)C(=O)N[C@H](CCCCN)C(=O)N[C@H](CC(C)C)C(=O)N[C@H](C)C(=O)N[C@H](CC(C)C)C(=O)N[C@H](C)C(=O)N[C@H](CC(C)C)C(=O)N[C@H](C)C(=O)N[C@H](CCCCN)C(=O)N[C@H](CCCCN)C(N)=O,haemolysis,human erythrocytes,"30 min, pH 7.4, 37 °C",,HC50,17.4 ± 2.17 µM
"O=C(c1ccc(F)cc1)C1CCN(C2Cc3c(cccc3OCC[18F])CC2O)CC1 (single isomer, unassigned; (-))",,"male Sprague-Dawley rat, striatum","intravenous, 30 min",,brain uptake,0.886 %ID/g
C[C@@H](O)[C@H](NC(=O)[C@@H]1CCCN1C(=O)CNC(=O)[C@@H]1CC(=O)NCC(=O)N[C@H]2Cc3cn(c4ccccc34)-c3cc(ccc3O)C[C@H](NC2=O)C(=O)NCC(=O)N[C@@H](CO)C(=O)N[C@@H](CCC(N)=O)C(=O)N[C@@H](Cc2c[nH]c3ccccc23)C(=O)N1)C(=O)NCC(=O)N[C@@H](CCC(N)=O)C(=O)N[C@@H](CCCNC(=N)N)C(=O)N[C@@H](CC(=O)O)C(=O)O,HPLC-MS,water,95 °C,,thermal stability,no effect
N=C(N)NCc1ccc(C(=O)NCCCC[C@H](NC(=O)N[C@@H](CCC(=O)O)C(=O)O)C(=O)O)cc1[211At],,"SCID mouse, PC-3 xenografts, blood",4 h,,tissue uptake,0.3 ± 0.08 %ID/g
